Measured values collected from several papers.
Protocols differ between the studies behind these lines.
Target: Alpha-glucosidase MAL12 (MAL12, Saccharomyces cerevisiae S288c, UniProt P53341)
UniProt P53341, sequence (whole entry, looked up): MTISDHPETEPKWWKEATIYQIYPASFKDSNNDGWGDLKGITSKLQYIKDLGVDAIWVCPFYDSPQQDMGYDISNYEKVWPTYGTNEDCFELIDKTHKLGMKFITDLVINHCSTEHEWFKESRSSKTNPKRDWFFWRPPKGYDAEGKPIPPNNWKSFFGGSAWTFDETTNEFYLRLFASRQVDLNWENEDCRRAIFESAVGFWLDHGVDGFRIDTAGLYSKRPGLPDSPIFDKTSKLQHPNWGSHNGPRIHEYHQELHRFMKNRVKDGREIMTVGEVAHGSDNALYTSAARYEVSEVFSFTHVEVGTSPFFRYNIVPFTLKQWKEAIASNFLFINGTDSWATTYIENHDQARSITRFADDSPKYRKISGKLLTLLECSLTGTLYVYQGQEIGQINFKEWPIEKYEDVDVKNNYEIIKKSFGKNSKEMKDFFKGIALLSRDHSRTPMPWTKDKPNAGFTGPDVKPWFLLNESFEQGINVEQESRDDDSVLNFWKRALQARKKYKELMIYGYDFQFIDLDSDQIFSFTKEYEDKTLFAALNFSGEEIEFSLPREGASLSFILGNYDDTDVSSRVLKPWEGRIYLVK

| Structure (SMILES) | assay | conditions | quantity | value |
| --- | --- | --- | --- | --- |
| O=C1OCC(Cc2ccccc2)C1c1ccccc1 (stereo not shown) | enzyme activity | together with: p-nitrophenyl glucoside | Vmax | 1.45 mM/min |
| COc1cc(-c2oc3cc(O)cc(O)c3c(=O)c2OC)ccc1O | enzyme activity, inhibitor | 250 µM | inhibition | > 99% |
| Cc1ccc(/C=N/N=C(c2ccc(N(C)C)cc2)c2ccc(N(C)C)cc2)cc1 | enzyme activity, inhibitor | concentration not given, pH 6.8, 37 °C, together with: p-nitrophenyl alpha-D-glucopyranoside | activity | inactive |
| O=C1C(=O)N(CCOc2ccc(Br)cc2)c2ccc(Br)cc21 | enzyme activity, inhibitor | 500 µM, pH 6.8 | inhibition | 93.3% |
| COc1c(-c2cccc(O)c2)oc2c(OC)c(O)cc(O)c2c1=O | enzyme activity, inhibitor, absorbance | 25 µM | inhibition | 92.2% |
| O=C(/C=C/c1ccc(O)c2oc(-c3ccc(O)c(O)c3)cc12)O[C@H](Cc1ccc(O)c(O)c1)C(=O)O | inhibitor | – | Ki ratio, uncompetitive over competitive | 6 fold |
| O=C1C(=O)N(CCOc2ccc(Cl)cc2)c2ccccc21 | enzyme activity, inhibitor | 500 µM, pH 6.8 | inhibition | 91.2% |
| C=C1C(=O)O[C@@H]2[C@H]3C(CO)=CC(=O)C3=C(C)C[C@H](O)[C@@H]12 | enzyme activity, inhibitor | 26.09 µM | Vmax | 0.016 mM/min |
| O=C1C(=O)N(CCOc2ccc(Cl)cc2)c2ccc(Cl)cc21 | enzyme activity, inhibitor | 500 µM, pH 6.8 | inhibition | 78.2% |
| Cc1cccc(/C=C/C(=O)c2cnn(-c3ccccc3)c2C)c1 | enzyme activity, inhibitor | 400 µM | inhibition | 47.5% |
